Assay results pooled from the literature.
Each numbered part is a random draw from the data of one study; scales do not carry over between parts.

Sample 1
Target: Histone acetyltransferase KAT6A, winged helix 1, GST fusion (KAT6A, Homo sapiens, UniProt Q92794, residues 1-85)
Technique: protein binding microarray
Molecule type: double-stranded DNA, one strand shown
Sample: in vitro
Concentration: not given
Setting: 8-mer, flanks averaged, mean of 2 arrays, mostly near background
Relative to: not given
Direction: higher = stronger binding
Quantity: E-score
Target sequence (chain): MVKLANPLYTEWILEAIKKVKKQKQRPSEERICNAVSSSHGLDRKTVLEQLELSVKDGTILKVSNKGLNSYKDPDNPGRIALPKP
ATGGACGA: -0.115
CATAGTTC: -0.0696
AGCCCGCG: 0.354

Sample 2
Target: Phosphate system positive regulatory protein PHO4, full length, GST-tagged (PHO4, Saccharomyces cerevisiae, UniProt P07270, residues 1-312)
Technique: competition protein-binding microarray
Molecule type: double-stranded DNA, one strand shown
Sample: in vitro
Concentration: 2 µM
Setting: whole 60-bp probe, lowest competitor level
Together with: Cbf1 competitor, 0.05 µM
Direction: higher = stronger binding
Quantity: fluorescence intensity
Constant ends, left off below: … GTCTTGATTCGCTTGACGCTGCTG
Construct (chain): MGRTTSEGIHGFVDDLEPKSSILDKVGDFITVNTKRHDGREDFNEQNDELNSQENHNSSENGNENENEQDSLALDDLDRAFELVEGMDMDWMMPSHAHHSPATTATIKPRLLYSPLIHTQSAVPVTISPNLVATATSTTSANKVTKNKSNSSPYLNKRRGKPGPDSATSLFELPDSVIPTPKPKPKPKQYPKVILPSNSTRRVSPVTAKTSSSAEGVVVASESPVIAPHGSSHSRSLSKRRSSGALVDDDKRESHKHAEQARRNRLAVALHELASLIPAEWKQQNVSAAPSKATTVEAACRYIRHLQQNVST
AAATTACTAAGTTGAGCCGTGGGTGACGCCGTATGA: 5410 a.u.
CGGGGTTAAGTTTGTCCAGTGGGTGGCTTGCAGCAG: 4620 a.u.
CGGGGTTAAGTTTGTCACCCTACTTGCTTGCAGCAG: 3330 a.u.
CAGTTCAACCTCACTCGCGTGCGGAGGTGTGAGGTG: 10000 a.u.
TAATTGCGACGGCGTCACCTGGAGAAACGAAAGATG: 3940 a.u.
GGCTTGTGTGAGTTCCACGTGCGGATGACTTAATAA: 18100 a.u.

Sample 3
Target: Sal-like protein 4, full length isoform A (SALL4, Homo sapiens, UniProt Q9UJQ4, residues 1-1053)
UniProt Q9UJQ4, sequence (whole entry, looked up): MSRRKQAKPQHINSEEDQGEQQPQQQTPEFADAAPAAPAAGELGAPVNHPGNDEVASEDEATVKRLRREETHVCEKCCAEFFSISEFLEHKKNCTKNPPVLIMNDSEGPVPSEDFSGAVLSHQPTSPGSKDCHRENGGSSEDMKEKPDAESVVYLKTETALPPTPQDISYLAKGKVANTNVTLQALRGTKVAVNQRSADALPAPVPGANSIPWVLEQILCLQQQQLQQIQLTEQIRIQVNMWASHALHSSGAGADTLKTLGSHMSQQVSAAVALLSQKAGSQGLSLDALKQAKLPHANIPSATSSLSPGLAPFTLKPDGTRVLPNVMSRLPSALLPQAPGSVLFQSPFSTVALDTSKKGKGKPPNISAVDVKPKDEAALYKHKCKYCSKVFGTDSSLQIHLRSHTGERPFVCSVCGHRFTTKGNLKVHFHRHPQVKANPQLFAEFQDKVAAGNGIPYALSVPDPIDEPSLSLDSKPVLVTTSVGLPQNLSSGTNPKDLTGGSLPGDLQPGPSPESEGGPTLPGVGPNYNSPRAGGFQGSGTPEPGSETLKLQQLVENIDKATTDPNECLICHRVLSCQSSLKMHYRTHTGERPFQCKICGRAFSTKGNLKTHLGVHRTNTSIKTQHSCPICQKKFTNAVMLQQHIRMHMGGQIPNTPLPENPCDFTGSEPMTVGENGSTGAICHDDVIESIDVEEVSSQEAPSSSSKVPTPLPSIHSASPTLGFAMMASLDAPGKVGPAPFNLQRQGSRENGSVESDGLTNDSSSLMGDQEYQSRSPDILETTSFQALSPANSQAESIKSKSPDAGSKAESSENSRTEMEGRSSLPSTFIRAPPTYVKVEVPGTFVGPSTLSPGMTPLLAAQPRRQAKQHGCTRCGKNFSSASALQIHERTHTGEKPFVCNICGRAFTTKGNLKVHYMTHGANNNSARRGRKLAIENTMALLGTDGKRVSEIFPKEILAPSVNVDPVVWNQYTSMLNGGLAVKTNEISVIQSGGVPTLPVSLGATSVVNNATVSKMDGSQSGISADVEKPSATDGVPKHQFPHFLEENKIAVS
Technique: universal PBM
Molecule type: double-stranded DNA, one strand shown
Sample: in vitro
Concentration: 600 nM
Setting: 8-mer, flanks averaged, mean of replicates
Direction: higher = stronger binding
Quantity: E-score
CGCTTAAA: 0.0868
ATGTAGGA: 0.0571
AGCTTGGA: -0.275
ATTCCGTC: 0.0644
CTGAGCAA: -0.108
GAGCACGA: -0.0591
CACCACAC: -0.071
GGCGGAGA: -0.164
CCGTTTCG: -0.152

Further values, each from its own experiment
PhoQ, residues 284 288 289 292 302 303 AMDMFI  fold induction (PhoP, residues 12 14 15 18 19 LHSVQ (Escherichia coli, UniProt P23836); Sort-seq, item: YFP reporter; E. coli; PhoQ-PhoP variant library, together with: 10 µM Mg2+; relative to: high Mg2+ state, higher = stronger signaling): 0.64

Some of these lines once more (further values, each from its own experiment):
PhoQ, residues 284 288 289 292 302 303 AMDMFI  fold induction (PhoP, residues 12 14 15 18 19 LHSVQ (Escherichia coli, UniProt P23836); Sort-seq, item: YFP reporter; E. coli; PhoQ-PhoP variant library, together with: 10 µM Mg2+; relative to: high Mg2+ state, higher = stronger signaling): 0.64
